Published values of several laboratories.
Every numbered part comes from another study and shows a few of its results, in no order. Substitutions count along the parent as printed.

Sample 1 — technique: universal PBM; form: double-stranded DNA, one strand shown; matrix: in vitro; tested at: 600 nM; direction: higher = stronger binding
Target: Sal-like protein 4, full length isoform A (SALL4, Homo sapiens, UniProt Q9UJQ4, residues 1-1053)
Sequence of UniProt Q9UJQ4 (whole entry, looked up): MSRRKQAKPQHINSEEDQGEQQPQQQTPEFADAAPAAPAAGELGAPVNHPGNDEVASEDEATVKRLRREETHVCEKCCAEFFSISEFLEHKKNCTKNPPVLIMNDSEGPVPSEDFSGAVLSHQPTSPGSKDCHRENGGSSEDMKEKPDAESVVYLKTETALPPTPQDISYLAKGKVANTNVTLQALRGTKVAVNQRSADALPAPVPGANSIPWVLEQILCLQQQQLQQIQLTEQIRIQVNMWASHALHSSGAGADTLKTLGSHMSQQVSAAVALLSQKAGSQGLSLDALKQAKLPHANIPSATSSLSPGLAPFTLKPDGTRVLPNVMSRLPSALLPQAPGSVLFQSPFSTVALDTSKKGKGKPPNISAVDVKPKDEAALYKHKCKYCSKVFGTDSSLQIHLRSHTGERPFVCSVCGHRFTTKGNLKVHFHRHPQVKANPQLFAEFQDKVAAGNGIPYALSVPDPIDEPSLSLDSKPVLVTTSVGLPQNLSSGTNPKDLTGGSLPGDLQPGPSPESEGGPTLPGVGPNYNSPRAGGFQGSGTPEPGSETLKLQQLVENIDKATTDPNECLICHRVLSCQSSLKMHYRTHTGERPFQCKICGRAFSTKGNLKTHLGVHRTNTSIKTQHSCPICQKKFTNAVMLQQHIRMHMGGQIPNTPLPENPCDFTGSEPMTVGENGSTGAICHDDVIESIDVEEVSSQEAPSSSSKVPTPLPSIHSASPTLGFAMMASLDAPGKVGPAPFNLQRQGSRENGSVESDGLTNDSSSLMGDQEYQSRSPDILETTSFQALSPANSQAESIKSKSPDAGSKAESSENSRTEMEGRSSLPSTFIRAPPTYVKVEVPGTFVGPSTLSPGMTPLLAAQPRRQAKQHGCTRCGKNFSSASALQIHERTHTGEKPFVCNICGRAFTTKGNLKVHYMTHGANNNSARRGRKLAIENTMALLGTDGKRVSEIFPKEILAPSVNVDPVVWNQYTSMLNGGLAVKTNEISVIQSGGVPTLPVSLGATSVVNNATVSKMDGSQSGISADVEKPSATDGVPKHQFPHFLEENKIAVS
Notes: 8-mer, flanks averaged, mean of replicates
| Oligonucleotide | E-score |
| --- | --- |
| AAGTTCCA | 0.0282 |
| CAGGCCCA | -0.318 |
| AAAAATCG | 0.237 |
| TATACGGA | 0.111 |
| GTCACGAC | 0.00577 |
| CTAAGACC | -0.186 |
| GTTCGTCA | -0.0753 |
| CAGTGATC | -0.0947 |

Sample 2 — technique: competition protein-binding microarray; form: double-stranded DNA, one strand shown; matrix: in vitro; tested at: 2 µM; added: Cbf1 competitor, 0.05 µM; direction: higher = stronger binding; constant ends, left off below: … GTCTTGATTCGCTTGACGCTGCTG
Target: Phosphate system positive regulatory protein PHO4, full length, GST-tagged (PHO4, Saccharomyces cerevisiae, UniProt P07270, residues 1-312)
Notes: whole 60-bp probe, lowest competitor level
Residues (chain): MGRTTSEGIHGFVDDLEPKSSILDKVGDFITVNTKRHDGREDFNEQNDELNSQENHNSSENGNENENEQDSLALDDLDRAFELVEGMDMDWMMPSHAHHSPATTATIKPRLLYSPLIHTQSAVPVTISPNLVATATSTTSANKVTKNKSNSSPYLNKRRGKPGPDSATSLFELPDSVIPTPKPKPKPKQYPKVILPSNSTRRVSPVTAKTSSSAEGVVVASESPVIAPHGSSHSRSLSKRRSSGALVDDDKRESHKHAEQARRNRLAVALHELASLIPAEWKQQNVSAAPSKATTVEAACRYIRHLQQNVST
| Oligonucleotide | fluorescence intensity [a.u.] |
| --- | --- |
| GTCTTGTCTCATTTACACGTGTTTTTCCCCACTTCA | 14900 |
| TAGAAATTCCTCCTTCACGTTCTGTTGAAGGGAGGA | 9150 |
| TTGACGAAACTATGCTGTGTGTGGCCAGGCGAACAA | 4260 |
| TGCGCAACAACTTAGCACGTGTTTTTATGTCTAGAA | 22500 |
| TCTGACCCCGATCCGCACGCTACTGCGTCGTCGATC | 6400 |
| TATCAGGATCAACAGCACATGCAAACACCCCAATTC | 9200 |
| CACCGACTGCTTCCGTGCGTGATGGGTAATGCAGTG | 7870 |
| CTAACGAAGGTTTGTATGGTGGGTGACAAGCCAAGT | 4290 |

Sample 3 — technique: aptamer microarray, sandwich; form: DNA with 2'F-ANA; matrix: in vitro; tested at: 200 nM; added: Cy3 exosite-II aptamer, 400 nM; direction: higher = stronger binding; oligonucleotide: GGTTGGTGTGGTTGG
Target: Prothrombin, mature alpha-thrombin (F2, Homo sapiens, UniProt P00734)
Notes: whole 15-mer aptamer, many near background
| Modification | mean fluorescence intensity |
| --- | --- |
| 2'F-ANA at 3 4 6 7 10 12 15 | 295 a.u. |
| 2'F-ANA at 1 2 4 6 7 8 10 12 14 | 49.4 a.u. |
| 2'F-ANA at 1 4 5 7 10 | 47.8 a.u. |
| 2'F-ANA at 2 3 6 10 13 | 314 a.u. |
| 2'F-ANA at 1 2 4 5 6 7 8 9 10 11 | 94.5 a.u. |
| 2'F-ANA at 1 2 3 4 9 11 15 | 173 a.u. |
| 2'F-ANA at 3 5 6 7 8 15 | 131 a.u. |
| 2'F-ANA at 1 4 5 7 10 11 12 13 | 46.2 a.u. |

Mixed results
Parent: PafA, mature enzyme, eGFP fusion (Elizabethkingia meningoseptica, UniProt Q9KJX5); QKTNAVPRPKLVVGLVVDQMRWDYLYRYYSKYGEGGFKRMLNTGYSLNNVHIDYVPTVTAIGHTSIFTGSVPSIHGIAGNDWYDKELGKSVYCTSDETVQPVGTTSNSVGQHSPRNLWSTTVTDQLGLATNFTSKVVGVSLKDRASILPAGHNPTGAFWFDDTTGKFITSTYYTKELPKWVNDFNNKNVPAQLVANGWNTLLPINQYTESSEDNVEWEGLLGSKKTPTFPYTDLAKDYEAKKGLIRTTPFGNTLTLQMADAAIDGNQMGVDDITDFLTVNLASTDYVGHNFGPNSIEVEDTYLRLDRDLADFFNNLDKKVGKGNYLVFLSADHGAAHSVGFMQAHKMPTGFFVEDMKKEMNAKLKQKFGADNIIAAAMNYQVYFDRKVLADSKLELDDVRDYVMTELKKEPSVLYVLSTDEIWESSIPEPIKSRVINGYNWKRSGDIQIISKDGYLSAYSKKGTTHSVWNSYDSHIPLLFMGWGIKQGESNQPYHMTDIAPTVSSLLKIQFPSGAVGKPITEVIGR
| Change | target | test | system | setting | how to read | endpoint | result |
| --- | --- | --- | --- | --- | --- | --- | --- |
| L309V | tungstate, free oxyanion | microfluidic competitive inhibition | in vitro, cell-free expressed | not given, derived from inhibition constants, unchanged parent 2230 nM | lower = stronger binding | oxyanion analog dissociation constant | 2.47 µM |

For quick reference, copied from above (sample 1):
| Oligonucleotide | E-score |
| --- | --- |
| AAAAATCG | 0.237 |
| TATACGGA | 0.111 |
| GTCACGAC | 0.00577 |
